# Measured values collected from several papers.
# A part holds a random share of what one study measured. Positions count from the first letter of the parent shown.

# Set 1
# Target: Interferon regulatory factor 7, full length, phosphomimetic (IRF7, Homo sapiens, UniProt Q92985, residues 1-503, S101K/S471D/S472D/S475D/S476D/S477D/S483D/S484D/S487D)
# UniProt Q92985, sequence (whole entry, unmodified, looked up): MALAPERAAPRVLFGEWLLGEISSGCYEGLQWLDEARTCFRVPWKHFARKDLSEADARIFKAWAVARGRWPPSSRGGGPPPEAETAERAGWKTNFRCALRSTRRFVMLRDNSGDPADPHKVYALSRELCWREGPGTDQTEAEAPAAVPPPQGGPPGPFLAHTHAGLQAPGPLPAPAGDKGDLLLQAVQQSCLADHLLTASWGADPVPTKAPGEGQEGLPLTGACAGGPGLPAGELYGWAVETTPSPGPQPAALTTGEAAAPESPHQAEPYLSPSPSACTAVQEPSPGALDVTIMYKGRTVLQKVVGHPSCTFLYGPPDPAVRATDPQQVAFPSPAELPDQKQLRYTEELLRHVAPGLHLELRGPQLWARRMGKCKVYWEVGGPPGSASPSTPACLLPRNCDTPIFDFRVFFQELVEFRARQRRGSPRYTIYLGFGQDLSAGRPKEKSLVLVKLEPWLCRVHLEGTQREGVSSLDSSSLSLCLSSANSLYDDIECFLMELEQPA
# Technique: protein-binding microarray
# Molecule type: double-stranded DNA, one strand shown
# Matrix: in vitro
# Concentration: 250 nM
# Notes: 60-bp whole probe
# Together with: salmon DNA 0.4 mg/ml
# Reference: random background probes
# Reading: higher = stronger binding
# Shared flanks, not repeated: GCCTAGCAC … GTCTTGATTCGCTTGACGCTGCTG
Strand,log fluorescence
TTAGAACTGGGGACTGGATTTGTGCTA,-0.181 z-score
GACGGTACCCTACTGCTGACGTGCTAG,-0.248 z-score
TTAGGTTTCGGGTTTCCGTTAGTGCTA,11.7 z-score
TTAGAACTGAGTCTCGGTTAGTGCTAG,1.35 z-score
GACGGTATCGACACTTGGGACGTGCTA,0.0919 z-score
TTAGGTCTCCTTCTCCTATAGTGCTAG,1.05 z-score

# Set 2
# Target: CCNB1, cyclin fold, Cln2 fusion (human)
# Technique: yeast growth competition, sequencing
# Matrix: yeast
# Notes: weak parent motif
# Reference: not given
# Reading: higher = stronger binding
# Starting sequence: RB1 docking peptide (human); PKPLKKLRFDIEG
Substitution,normalised enrichment score
PKPLKKLDFDIEG [R8D],0.518
PKPLKKLRFDIEH [G13H],0.558
PKPLKKLRFDAEG [I11A],1.17
PKPLKTLRFDIEG [K6T],0.444
PKPLKKLRFVIEG [D10V],-0.317
PKPLKKLRFDIEK [G13K],0.829
PKPLKKLRFDILG [E12L],1.25

# Set 3
# Target: Sal-like protein 4, full length isoform A (SALL4, Homo sapiens, UniProt Q9UJQ4, residues 1-1053)
# UniProt Q9UJQ4, sequence (whole entry, looked up): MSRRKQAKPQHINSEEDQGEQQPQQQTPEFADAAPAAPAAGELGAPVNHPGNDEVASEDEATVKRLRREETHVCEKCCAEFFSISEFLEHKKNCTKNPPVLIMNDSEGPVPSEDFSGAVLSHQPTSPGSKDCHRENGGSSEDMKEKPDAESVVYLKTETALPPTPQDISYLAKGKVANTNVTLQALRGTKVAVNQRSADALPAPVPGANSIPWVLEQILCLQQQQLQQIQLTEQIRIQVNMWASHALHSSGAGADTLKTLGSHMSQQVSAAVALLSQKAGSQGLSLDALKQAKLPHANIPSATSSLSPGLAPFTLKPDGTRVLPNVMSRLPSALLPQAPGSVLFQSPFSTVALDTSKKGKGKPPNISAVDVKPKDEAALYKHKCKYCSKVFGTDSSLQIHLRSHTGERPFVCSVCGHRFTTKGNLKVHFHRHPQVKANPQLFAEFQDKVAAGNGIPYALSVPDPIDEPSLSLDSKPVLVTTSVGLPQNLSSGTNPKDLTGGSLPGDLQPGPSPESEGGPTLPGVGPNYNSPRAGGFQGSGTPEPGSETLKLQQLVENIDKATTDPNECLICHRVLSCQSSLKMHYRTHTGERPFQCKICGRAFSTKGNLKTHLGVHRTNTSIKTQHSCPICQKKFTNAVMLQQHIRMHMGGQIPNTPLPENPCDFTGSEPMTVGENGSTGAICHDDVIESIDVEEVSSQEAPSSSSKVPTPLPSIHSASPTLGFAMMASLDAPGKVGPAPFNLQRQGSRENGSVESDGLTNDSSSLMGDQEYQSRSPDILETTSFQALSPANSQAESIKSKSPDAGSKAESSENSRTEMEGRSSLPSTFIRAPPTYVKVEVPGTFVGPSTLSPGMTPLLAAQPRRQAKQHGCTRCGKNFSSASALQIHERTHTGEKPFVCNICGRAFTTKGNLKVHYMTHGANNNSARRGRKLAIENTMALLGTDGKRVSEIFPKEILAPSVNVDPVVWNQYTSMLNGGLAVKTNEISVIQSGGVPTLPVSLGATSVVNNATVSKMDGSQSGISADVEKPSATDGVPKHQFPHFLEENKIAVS
# Technique: universal PBM
# Molecule type: double-stranded DNA, one strand shown
# Matrix: in vitro
# Concentration: 600 nM
# Notes: 8-mer, flanks averaged, mean of replicates
# Reading: higher = stronger binding
Strand,E-score
AAGTTAAC,0.166
ACTTCGTC,-0.133
CAGCCGGC,-0.334
GCTAGAAA,0.121
CGATGTCA,0.00156
ACGTTGAC,-0.0542

# Single results of other studies
Molecule,target,test,test system,conditions,scale,quantity,result
"PhoQ, residues 284 288 289 292 302 303 TLMATV","PhoP, residues 12 14 15 18 19 AQALL (Escherichia coli, UniProt P23836)","Sort-seq, measured: YFP reporter",E. coli,"PhoQ-PhoP variant library, together with: 10 µM Mg2+","reference: high Mg2+ state, higher = stronger signaling",fold induction,5.06

# Some of these lines once more (single results of other studies):
Molecule,target,test,test system,conditions,scale,quantity,result
"PhoQ, residues 284 288 289 292 302 303 TLMATV","PhoP, residues 12 14 15 18 19 AQALL (Escherichia coli, UniProt P23836)","Sort-seq, measured: YFP reporter",E. coli,"PhoQ-PhoP variant library, together with: 10 µM Mg2+","reference: high Mg2+ state, higher = stronger signaling",fold induction,5.06
